Measurements from different studies.
A part holds a random share of what one study measured. Positions count from the first letter of the parent shown.

Sample 1
Target: UBE2U UBC core domain (UniProt Q5VVX9)
Technique: yeast two-hybrid
Sample: yeast
Setting: mostly zero background
Relative to: not given
Reading: higher = stronger interaction
B1: VPS8 RING domain (UniProt Q8N3P4); chain TRGLNPKQDYCSICLQQYKRRQEMADEIIVFSCGHLYHSFCLQNKECTVEFEGQTRWTCYKCSSSNKVGKLSE
B2: RING1 RING domain (UniProt Q06587); chain SPRSLHSELMCPICLDMLKNTMTTKECLHRFCSDCIVTALRSGNKECPTCRKKLVSKRSLR
B3: TRIM11 RING domain (UniProt Q96F44); chain LSTNLQEEATCAICLDYFTDPVMTDCGHNFCRECIRRCWGQPEGPYACPECRELSPQRNLRP
B4: RNF186 RING domain (UniProt Q9NXI6); chain HSGSTECDLECLVCREPYSCPRLPKLLACQHAFCAICLKLLLCVQDNTWSITCPLCRKVTAVPGGLI
B5: RNF182 RING domain (UniProt Q8N6D2); chain AESQASDELECKICYNRYNLKQRKPKVLECCHRVCAKCLYKIIDFGDSPQGVIVCPFCRFETCLPDDEV
B6: ZMYND11 RING domain (UniProt Q15326); chain DEIDWETENHDWYCFECHLPGEVLICDLCFRVYHSKCLSDEFRLRDSSSPWQCPVCRSIKKKNTNKQEM
B7: ZNRF4 RING domain (UniProt Q8WWF5); chain VRTFTWHNDLCAICLDEYEEGDQLKILPCSHTYHCKCIDPWFSQAPRRSCPVCKQSVAATEDSF
B8: TRIM41 RING domain (UniProt Q8WV44); chain PVQTLQEEAVCAICLDYFTDPVSIGCGHNFCRVCVTQLWGGEDEEDRDELDREEEEEDGEEE
Construct (chain): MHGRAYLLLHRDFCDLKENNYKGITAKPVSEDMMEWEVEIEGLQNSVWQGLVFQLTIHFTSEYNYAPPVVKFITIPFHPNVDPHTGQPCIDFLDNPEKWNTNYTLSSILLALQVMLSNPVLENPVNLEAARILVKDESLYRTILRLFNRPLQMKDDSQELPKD
Sequence	lacZ reporter activity
EIKEYKARLTCPCCNTRKKDAVLTKCFHVFCFECVRGRYEARQRKCPKCNAAFGAHDFHR (RNF40 RING domain (UniProt O75150))	0
B1 (VPS8 RING domain)	0
B2 (RING1 RING domain)	8950
ASPKIFQKTKCSICNSALELPSVHFLCGHSFHQHCFESYSESDADCPTCLPENRKVMDMI (VPS11 RING domain (UniProt Q9H270))	2790
B3 (TRIM11 RING domain)	0
B4 (RNF186 RING domain)	16100
B5 (RNF182 RING domain)	0
ASEEEFQFLRCQQCQAEAKCPKLLPCLHTLCSGCLEASGMQCPICQAPWPLGADTP (PML RING domain (UniProt P29590))	7900
B6 (ZMYND11 RING domain)	0
B7 (ZNRF4 RING domain)	0
B8 (TRIM41 RING domain)	0

Sample 2
Target: CCNB1, cyclin fold, Cln2 fusion (human)
Technique: yeast growth competition, sequencing
Sample: yeast
Setting: strong parent motif
Relative to: not given
Reading: higher = stronger binding
Starting sequence: BRCA2 docking peptide (human); PSIKRNLLNEFDR; partner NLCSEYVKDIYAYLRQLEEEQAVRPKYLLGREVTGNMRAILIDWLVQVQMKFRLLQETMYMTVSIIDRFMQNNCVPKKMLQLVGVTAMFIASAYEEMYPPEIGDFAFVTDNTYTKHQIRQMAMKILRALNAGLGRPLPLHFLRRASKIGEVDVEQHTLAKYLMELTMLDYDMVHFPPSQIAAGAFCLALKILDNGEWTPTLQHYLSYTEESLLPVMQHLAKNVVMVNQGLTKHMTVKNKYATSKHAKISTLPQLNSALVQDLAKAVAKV
Change	normalised enrichment score
PSIKANALNEFDR [R5A L7A]	-0.142
PSIERNLLNEFDR [K4E]	2.74
ASIKRNLLNEFDR [P1A]	2.14
PWIKRNLLNEFDR [S2W]	-0.386
PSIGRNLLNEFDR [K4G]	0.826
PSIKRNLLIEFDR [N9I]	3
PSTKRNLLNEFDR [I3T]	0.447
PSPKRNLLNEFDR [I3P]	0.368
HSIKRNLLNEFDR [P1H]	2.61
PSIKRNLWNEFDR [L8W]	0.467
PSIKRNLLNEFDM [R13M]	2.81
PSIKRNLLNEFDE [R13E]	4.56
PSIKRNLLNEYDR [F11Y]	0.811
PSIKRNLLNLFDR [E10L]	0.406
PSIKRNLLNWFDR [E10W]	0.0407
PSIVRNLLNEFDR [K4V]	4.02

Sample 3
Target: TAR DNA-binding protein 43, full length, His tag (TARDBP, Homo sapiens, UniProt Q13148, residues 1-414)
Technique: RNA Bind-n-Seq
Molecule type: RNA
Sample: in vitro
Concentration: 20 nM
Setting: 6-mer, flanks averaged, single round
With: 150 mM KCl
Relative to: input library
Reading: higher = stronger binding
Sequence	6-mer enrichment (R)
UCGGUU	0.662
UUUGCU	0.66
AGUGCU	0.776
ACUGCU	0.628
AAAGGC	0.766
CUCGAA	0.608
UGUGGG	3.66
AGCUAC	0.636
AGUCAC	0.634
GUACAA	0.712
AUUCUU	0.563
CCUGCU	0.625
CAGUCG	0.833
UCGCCA	0.644
CUCUAA	0.589
GUGCGA	1.51
ACAUUA	0.583
GGGUUU	1.56
UCAGGU	0.787

Sample 4
Target: RING finger protein unkempt homolog, zinc fingers 1-6, GST-SBP tag (UNK, Homo sapiens, UniProt Q9C0B0, residues 30-357)
Technique: RNA Bind-n-Seq
Molecule type: RNA
Sample: in vitro
Concentration: not given
Setting: RNA with constant flanks, ends assumed
Relative to: input RNA pool
Reading: higher = stronger binding
Shared flanks, not repeated: GGGAGUUCUACAGUCCGACGAUC … CAACAGAGGAUUGAGCAUCA
Residues (chain): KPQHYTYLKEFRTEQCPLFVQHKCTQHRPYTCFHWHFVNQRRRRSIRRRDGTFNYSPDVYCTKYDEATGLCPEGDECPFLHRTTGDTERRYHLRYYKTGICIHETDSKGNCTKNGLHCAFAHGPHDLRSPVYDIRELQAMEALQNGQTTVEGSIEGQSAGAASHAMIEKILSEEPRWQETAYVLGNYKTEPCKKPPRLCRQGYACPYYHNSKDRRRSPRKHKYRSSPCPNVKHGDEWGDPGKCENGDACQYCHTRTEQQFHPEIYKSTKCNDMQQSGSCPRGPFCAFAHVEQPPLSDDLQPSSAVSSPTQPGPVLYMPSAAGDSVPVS
Sequence	bound/input enrichment [ratio]
UAUGUCGAGUUUCUCUAGGGCGCCCCAGCAAUGGGCCACUUUUGCUAGAAUAUGGUAUCUCUCCGAUGGGAAAAUGCAGCCACCUGGCAAACUUGCUGCUAUGGCAUCUAUAAGACUUCA	0.637
UACGAGCGGGGUGUCGCAGUCUUGUGCACAGAGUAAACUUUUCUAGCUGCCCCUUUCUGUAACCGUGAAAGUUGGUAUUUAACAUUUAUUCAUUUUUAAAAUAUUUGGAAGGUCUGAGCU	8.45
UACGACUACUCGCCCUAUGGCUAUUACGGCUACGGCCCCGGCUACGACUACAGUCAGGGCCGUACAAACUACGGCAAGAGCCAGCGACGUGGUGGCCAUCAGAAUAACUACAAGCCAUAC	0.0835
CUACCCUUGGCACAGGCCUCCAGUGAGCCUGUUCUGUUUCAGAAGAAAGGGGAAGCAGUGCCGCAUUUUUUGUUUGGUCUCUUAAAAAUGUGGUUAAAUCCACUAUUUUUUGCUCCUGUA	0.111
GGGUUUUCUGCCCCAAAAGACCAACAAGUAGUCACAGCAGUAGAGUACCAAGAGGCUAUUUCCGCCUGCAAAACCCCAAAGAAGACUGUUUCCUCCAGAUUAGAGUGGAAGAAACUGGGU	0.366
GCUUUUAAUGGAGUUAUGUUUGGAGACAGGCCACUGAAAAUAAAUCACUCCAACAAUGCAACCGUAAAACCUCCUGAGAUGACACCUCAGGCUGCAGCUAAGGAGUUAGAAGAAGUAAUG	1.12
CAAGGUGGUUUCAGAGAAGUGCGGAAUGAGUAUGGCUCAAGAAUAGGAGGCAAUGAAGGGACCGAUGUCCCAAUUCCAAGAUUUGCUGUUGGCAUUGUAAUAGGAAGAAAUGGAGAAAUG	2.28
GGCCAGGAACAGUCUUCACGGGGACAAAGAAUUUUAUCUAUUCCAAUUUGGCCCCCAAACCCCGGUAUCUCACAGAACUGUGUGUAUGAGGUACAGCAGGUACCAAAAGUAGAAAAGACA	0.27

A few entries again (sample 1):
Sequence	lacZ reporter activity
B4 (RNF186 RING domain)	16100
B2 (RING1 RING domain)	8950
ASPKIFQKTKCSICNSALELPSVHFLCGHSFHQHCFESYSESDADCPTCLPENRKVMDMI (VPS11 RING domain (UniProt Q9H270))	2790
